Published values pooled from the literature.
Each numbered part is a random draw from the data of one study; scales do not carry over between parts.

Set 1
Target: Fragile X messenger ribonucleoprotein 1, C-terminal low-complexity region (Fmr1, Mus musculus, UniProt P35922)
Method: RNA Bind-n-Seq
Molecule type: RNA
Matrix: in vitro
Tested at: 200 nM
Setting: whole 134-nt RNA, ends assumed
Added: 150 mM LiCl
Relative to: input library
Reading: higher = stronger binding
All molecules: 7-deaza-guanosine replaces G
Shared flanks, not repeated: GGGAGUUCUACAGUCCGACGAUC … UGGAAUUCUCGGGUGUCAAGG
| Sequence | log2 enrichment |
| --- | --- |
| CUCAAGUCCUGUGCUACACAUCGUAUGUACCGAAUCGGUUUUUGGUUUGGUGGAAAGUAUUAUGUUACGCCGUUCGGAUCUGCACUUCCA | -0.395 |
| AGUCCUGUGCUACACAUCGUAUGUACCGAAUCGGGAAAGGGAAAAAAAGGGUUUGGGAAAGUAUUAUGUUACGCCGUUCGGAUCUGCACU | -2.81 |
| UGGGGUCUGCGUACGCCUGGAGUCCUUCCCCGCUGUGCUCAGCAUGGACCCUAUCCGGAGCUUCUGCGGGAAGCUGCGGUCUCUGGCCAG | -0.508 |
| UCCUCAAGUCCUGUGCUACACAUCGUAUGUACCGAAUCGGGUGGGUGGUGGGAAAGUAUUAUGUUACGCCGUUCGGAUCUGCACUUCCAG | 0.878 |
| CAAGUCCUGUGCUACACAUCGUAUGUACCGAAUCGGAAAGGGAAAGGGAAAGGGGAAAGUAUUAUGUUACGCCGUUCGGAUCUGCACUUC | -0.279 |
| UCCUGUGCUACACAUCGUAUGUACCGAAUCGGUUUUUUUGGGUUUUUUUGGUUUUUUUGGAAAGUAUUAUGUUACGCCGUUCGGAUCUGC | -0.202 |
| CUGUGCUACACAUCGUAUGUACCGAAUCGGGAAAAAAAGGGAAAAAAAGGGGAAAAAAAGGGAAAGUAUUAUGUUACGCCGUUCGGAUCU | 0.297 |
| CACAGACAACAAACACCCACACAGACACAGAGGGAAGGGGUUGGGAUGGGGACAGGGUGCACAGCAGGGCGGGGUAGGACCCCAGCCCCU | 0.163 |

Set 2
Organism: Saccharomyces cerevisiae
Read-out: pheromone growth arrest
Method: yeast competitive growth sequencing
Molecule type: peptide
Strain: no Cln2 overexpression
Setting: peptide tiling library
Reading: direction not given
| Sequence | enrichment score |
| --- | --- |
| VRDLSYRLVFLACCVA | -0.391 |
| ALTMEALEDPSPELME | 0.186 |
| FREFEVEKQTAEETGL | 0.398 |
| DSGFCLDSPGPLDSKE | 0.931 |
| TLPYDLACTGGDFVLF | 0.843 |
| NRLLKLFTRCLTPLVP | -0.926 |
| SGYLTDENEVGFRG | -0.261 |
| RNRGPKLNAMLRLGVL | 0.169 |
| AIRKMREDRWAVIAKM | 0.204 |
| NLEPNAEFDKRTEFIT | 0.222 |
| EAAPPTQEAQGETEPT | 0.168 |
| VEEEFFALRKRTPSAG | 0.314 |
| ELGMEHCEKFEISETS | 0.243 |
| DSDSDSEGGAAGGEAD | 1.2 |
| TQERKQIHCLSEDELS | -0.314 |
| RRRIKLPESDSSED | 1.21 |
| IPMIAKNLMCELDE | -0.128 |
| IFNKPECGRVQRAIFQ | -0.0948 |
| NARRSLNFGGSTGT | 0.0523 |

Set 3
Target: Sal-like protein 4, full length isoform B (SALL4, Homo sapiens, UniProt Q9UJQ4-2, residues 1-616)
Method: universal PBM
Molecule type: double-stranded DNA, one strand shown
Matrix: in vitro
Tested at: not given
Setting: 8-mer, flanks averaged, mean of replicates
Reading: higher = stronger binding
Construct (chain): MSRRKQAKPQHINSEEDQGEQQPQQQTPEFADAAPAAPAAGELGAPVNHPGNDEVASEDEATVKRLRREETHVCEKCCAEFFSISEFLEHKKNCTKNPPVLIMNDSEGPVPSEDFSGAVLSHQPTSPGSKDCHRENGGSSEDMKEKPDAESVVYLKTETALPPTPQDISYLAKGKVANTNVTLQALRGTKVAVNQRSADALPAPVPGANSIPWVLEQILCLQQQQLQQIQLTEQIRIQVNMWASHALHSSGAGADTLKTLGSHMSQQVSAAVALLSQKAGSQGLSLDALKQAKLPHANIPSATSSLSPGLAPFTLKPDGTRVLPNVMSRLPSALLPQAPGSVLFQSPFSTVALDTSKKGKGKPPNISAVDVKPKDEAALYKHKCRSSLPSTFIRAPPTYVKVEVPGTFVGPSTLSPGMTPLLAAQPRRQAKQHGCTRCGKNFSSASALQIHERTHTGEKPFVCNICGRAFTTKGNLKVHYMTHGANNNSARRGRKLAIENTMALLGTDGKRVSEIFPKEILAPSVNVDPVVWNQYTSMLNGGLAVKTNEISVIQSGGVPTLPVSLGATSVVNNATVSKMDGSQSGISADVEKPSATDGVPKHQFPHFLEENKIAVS
| Sequence | E-score |
| --- | --- |
| ATCGTTTA | 0.241 |
| ATTCCCTG | -0.0473 |
| GAAGGGTA | -0.0427 |
| AGCTAGCG | -0.208 |
| CTACATCC | 0.0537 |
| ACAGTAAG | -0.0543 |
| ACCGGTCG | -0.186 |
| ACTCGAAG | -0.0921 |
| CGTTCTCA | -0.0765 |
| GGGCAAGA | -0.0259 |
| AGCGGCTA | -0.201 |
| TACCAGGA | -0.0123 |
| ACATGGGC | -0.137 |
| CTCGGCCC | -0.296 |
| CCTGGCAC | -0.195 |
| ACGTGACA | 0.00287 |
| CCGGCCTC | -0.393 |
| CCGGCAAA | -0.139 |
| CTAGCACC | -0.191 |
| TTACACAA | 0.255 |
| AGCATTGC | -0.0309 |
| GCACATAA | 0.255 |
| GGGCCCCC | -0.457 |
| GATACTCA | 0.0743 |
| CTGGAGGC | -0.0565 |

Set 4
Target: Prothrombin, mature alpha-thrombin (F2, Homo sapiens, UniProt P00734)
Method: aptamer microarray, sandwich
Molecule type: DNA with 2'F-ANA
Matrix: in vitro
Tested at: 200 nM
Setting: whole 15-mer aptamer, many near background
Added: Cy3 exosite-II aptamer, 400 nM
Reading: higher = stronger binding
Sequence: GGTTGGTGTGGTTGG
| Modification | mean fluorescence intensity |
| --- | --- |
| 2'F-ANA at 4 5 6 7 8 10 11 13 | 47.7 a.u. |
| 2'F-ANA at 2 3 4 5 7 9 13 14 15 | 137 a.u. |
| 2'F-ANA at 1 6 7 9 10 11 12 15 | 65.6 a.u. |
| 2'F-ANA at 2 5 11 14 15 | 43.1 a.u. |
| 2'F-ANA at 1 7 12 13 15 | 337 a.u. |
| 2'F-ANA at 1 3 4 6 8 10 11 12 15 | 71.3 a.u. |
| 2'F-ANA at 1 3 6 7 8 9 10 11 13 | 78.4 a.u. |
| 2'F-ANA at 1 2 3 4 6 8 11 13 14 15 | 60.8 a.u. |
| 2'F-ANA at 1 3 4 6 10 13 | 54.9 a.u. |
| 2'F-ANA at 8 9 12 14 | 242 a.u. |
| 2'F-ANA at 1 3 5 7 9 11 | 60.2 a.u. |
| 2'F-ANA at 1 3 5 9 10 14 15 | 46.4 a.u. |
| 2'F-ANA at 1 2 3 4 5 9 10 13 15 | 47.5 a.u. |
| 2'F-ANA at 4 5 11 14 | 42.1 a.u. |
| 2'F-ANA at 4 5 6 10 13 14 | 43.3 a.u. |
| 2'F-ANA at 1 3 4 8 13 14 | 77.2 a.u. |
| 2'F-ANA at 5 12 14 | 46.1 a.u. |
| 2'F-ANA at 1 2 3 5 7 8 9 10 11 14 | 47.5 a.u. |
| 2'F-ANA at 2 9 13 15 | 347 a.u. |
| 2'F-ANA at 1 2 4 10 11 12 13 | 53 a.u. |
| 2'F-ANA at 4 5 7 11 12 13 14 15 | 61.8 a.u. |
| 2'F-ANA at 2 3 5 7 8 9 10 11 12 14 | 211 a.u. |
| 2'F-ANA at 1 2 3 11 12 13 | 306 a.u. |
| 2'F-ANA at 5 6 8 10 12 13 15 | 182 a.u. |
| 2'F-ANA at 1 5 7 8 9 12 13 14 | 44.2 a.u. |

Excerpt of the above (set 1):
| Sequence | log2 enrichment |
| --- | --- |
| CUCAAGUCCUGUGCUACACAUCGUAUGUACCGAAUCGGUUUUUGGUUUGGUGGAAAGUAUUAUGUUACGCCGUUCGGAUCUGCACUUCCA | -0.395 |
| AGUCCUGUGCUACACAUCGUAUGUACCGAAUCGGGAAAGGGAAAAAAAGGGUUUGGGAAAGUAUUAUGUUACGCCGUUCGGAUCUGCACU | -2.81 |
| UGGGGUCUGCGUACGCCUGGAGUCCUUCCCCGCUGUGCUCAGCAUGGACCCUAUCCGGAGCUUCUGCGGGAAGCUGCGGUCUCUGGCCAG | -0.508 |
| UCCUCAAGUCCUGUGCUACACAUCGUAUGUACCGAAUCGGGUGGGUGGUGGGAAAGUAUUAUGUUACGCCGUUCGGAUCUGCACUUCCAG | 0.878 |
| CAAGUCCUGUGCUACACAUCGUAUGUACCGAAUCGGAAAGGGAAAGGGAAAGGGGAAAGUAUUAUGUUACGCCGUUCGGAUCUGCACUUC | -0.279 |
| UCCUGUGCUACACAUCGUAUGUACCGAAUCGGUUUUUUUGGGUUUUUUUGGUUUUUUUGGAAAGUAUUAUGUUACGCCGUUCGGAUCUGC | -0.202 |
| CUGUGCUACACAUCGUAUGUACCGAAUCGGGAAAAAAAGGGAAAAAAAGGGGAAAAAAAGGGAAAGUAUUAUGUUACGCCGUUCGGAUCU | 0.297 |
| CACAGACAACAAACACCCACACAGACACAGAGGGAAGGGGUUGGGAUGGGGACAGGGUGCACAGCAGGGCGGGGUAGGACCCCAGCCCCU | 0.163 |
